Measured values from different studies.
Numbered parts are unrelated; each lists some results of a single study. Positions count from the first letter of the parent shown.

Study 1 — technique: RNA Bind-n-Seq; form: RNA; matrix: in vitro; tested at: 365 nM; relative to: no-protein control; direction: higher = stronger binding
Target: RNA binding protein fox-1 homolog 2, RRM domain, GST-SBP tag (RBFOX2, Homo sapiens, UniProt O43251-10, residues 100-194)
Notes: natural RNA segment, single round, ends assumed
Construct (chain): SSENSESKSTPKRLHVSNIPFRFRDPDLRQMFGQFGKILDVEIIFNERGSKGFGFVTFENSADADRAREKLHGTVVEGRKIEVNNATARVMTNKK
Strand	RBNS enrichment (R)
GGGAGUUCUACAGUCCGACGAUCACUUUUUUCCUUAGGGGGAGGUUUGCCUUAAAGGCUUUUAAUUUUGUUUUGUUUGCAAACAUGUUUUAAAUUAAAUUCGGGUAAUAUUAAACAGUACAUGUUUACAAUACUGGAAUUCUCGGGUGCCAA	0.811
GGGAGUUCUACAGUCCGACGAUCUUACCUUACAACCUUUCCAUUAUUCAGACAUUUGUAAAGUCAUUUCAUCCCAAAUACUUAACCUCAUUCUUUAGUAAUGGUGUAGGUGGAUUGGCUCAGGUUUAAUACAUUGGAAUUCUCGGGUGCCAA	0.258
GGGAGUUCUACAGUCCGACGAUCACUAGGACUAUGACCUCCACGGCGGCUGUUUAGGUCUCGACUUACAUCAGAAUCUUGCACAGCAUUGCAAAAUCCCAGUGCUCCCUCUAGGACACACUGACCAAAAUAUGUGGAAUUCUCGGGUGCCAA	0.194
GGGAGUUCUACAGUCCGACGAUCCUCCCCCAAAUCGCCAUAUUUAAAAAUUAUUUUCACUCUAUUCUUGCUUAAAACUGUACUCUUUUGCAAAUUAACAAUUUUAUCACUGAUUCAGAGUUAAAAAGAAGACUUGGAAUUCUCGGGUGCCAA	0.572
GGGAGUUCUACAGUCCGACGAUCUUAUUAAAAAGAAAAAAGCCAAAAAGAAAAAAAAAAAAAGCAAGCCACCUCUCUCUUUCUUUUCUUGCUCUCUUUUUCUUUCUCUCUCUCUCAAGUUUGUGCAGGGAGAUUGGAAUUCUCGGGUGCCAA	1.07
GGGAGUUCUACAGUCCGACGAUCGUCUUUUGAAUCUAAAAUCUUGGAAGAAACCAAAUUUUUCAAUGAUGCUAUUGAAACAUACAAAGGUAGACCUUUUGACUUUAAACAGUUAAUAACGAAUGCUGUUUCAAUGGAAUUCUCGGGUGCCAA	0.388
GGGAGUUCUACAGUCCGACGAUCACAAGGUGAGUGGAGUGUAAAACUGGUCAGCCCUUGGAGAGACUUCUUGGUUGUGUCACCCCCAAAGAGUCAGAACUGUACACAGUUCAAAACUUAGUGACUGUGGGUCAUGGAAUUCUCGGGUGCCAA	0.269
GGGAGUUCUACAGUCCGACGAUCAAGUCCACUAACUGUUCAAAGAUAAGGAGCAGUGCCUAUUCUCAAGAGCAGCCAUGCCAUGUACUCCUUUGUUCCUAUCUGGGAAGGUUGUUGACGGUACUGACCAAGCAUGGAAUUCUCGGGUGCCAA	1.03

Study 2 — technique: RNA Bind-n-Seq; form: RNA; matrix: in vitro; tested at: 1 µM; notes: whole 134-nt RNA, ends assumed; together with: 150 mM KCl; relative to: input library; direction: higher = stronger binding
Target: Ras GTPase-activating protein-binding protein 1, C-terminal RGG region (G3BP1, Homo sapiens, UniProt Q13283)
Chain of UniProt Q13283 (whole entry, looked up): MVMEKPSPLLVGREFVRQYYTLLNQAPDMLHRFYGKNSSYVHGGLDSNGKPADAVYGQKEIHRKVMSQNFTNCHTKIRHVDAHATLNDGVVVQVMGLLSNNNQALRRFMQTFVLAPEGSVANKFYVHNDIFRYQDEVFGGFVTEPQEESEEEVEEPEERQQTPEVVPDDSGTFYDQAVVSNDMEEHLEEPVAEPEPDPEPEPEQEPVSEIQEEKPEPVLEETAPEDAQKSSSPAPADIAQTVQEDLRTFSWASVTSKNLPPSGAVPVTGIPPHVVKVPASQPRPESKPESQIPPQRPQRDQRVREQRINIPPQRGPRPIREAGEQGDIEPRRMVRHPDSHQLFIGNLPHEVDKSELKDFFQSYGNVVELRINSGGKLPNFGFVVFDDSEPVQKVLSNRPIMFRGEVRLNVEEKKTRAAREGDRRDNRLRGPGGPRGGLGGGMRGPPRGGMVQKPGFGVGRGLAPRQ
Strand	log2 enrichment
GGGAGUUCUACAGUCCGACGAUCGCAGGAAGUAAAAACAAAUGGAAAUGAAACGGAUAGUGGCAGGGGUGGGGGUUGCUAAGGAAAGGGUGGGAUGGGAGUGGGUAAAGAGUUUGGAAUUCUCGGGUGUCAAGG	2.23
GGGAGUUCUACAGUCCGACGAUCACCAUGCAGGUGGGCAUCUUUGGGAAGUGGGGCAAGGGGGGGAUAGGGAGGGGGGUAACACUUUGGGAACAGAAAGUCCCAGGUCGUUUCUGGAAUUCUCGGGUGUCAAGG	-0.935
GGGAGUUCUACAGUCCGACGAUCAAGUCCUGUGCUACACAUCGUAUGUACCGAAUCGGGAAAAAGGGUUUUUGGGAGGGAAAGUAUUAUGUUACGCCGUUCGGAUCUGCACUUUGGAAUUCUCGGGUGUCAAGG	0.885
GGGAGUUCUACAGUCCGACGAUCUCCUCAAGUCCUGUGCUACACAUCGUAUGUACCGAAUCGGGCGGCGGGCGGGAAAGUAUUAUGUUACGCCGUUCGGAUCUGCACUUCCAGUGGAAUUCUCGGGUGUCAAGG	0.451
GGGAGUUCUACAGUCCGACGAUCUAACUUUAGAGGAGGAUCUGAUGGAUAUGGCAGUGGACGUGGAUUUGGGGAUGGCUAUAAUGGGUAUGGAGGAGGACCUGUAGGUGGCAAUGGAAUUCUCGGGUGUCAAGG	-1.13
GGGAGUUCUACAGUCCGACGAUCAAGUCCUGUGCUACACAUCGUAUGUACCGAAUCAAACCCCCAAAUUUAAAUUUAAAAAAGUAUUAUGUUACGCCGUUCGGAUCUGCACUUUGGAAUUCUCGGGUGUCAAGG	-0.507
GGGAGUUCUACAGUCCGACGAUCUCCUGUGCUACACAUCGUAUGUACCGAAUCAAACCCCCCCAAAUUUUUAAAUUUUUAAAAAAGUAUUAUGUUACGCCGUUCGGAUCUGCAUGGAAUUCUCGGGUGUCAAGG	-0.47
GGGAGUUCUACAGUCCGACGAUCCAAGUCCUGUGCUACACAUCGUAUGUACCGAAUCGGAAAGGAAAAAGGUUUUUGGAAAGUAUUAUGUUACGCCGUUCGGAUCUGCACUUCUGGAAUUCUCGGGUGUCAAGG	-1.82
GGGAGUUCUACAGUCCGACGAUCAGUCCUGUGCUACACAUCGUAUGUACCGAAUCGGGAAAAGGAAAAGGGGAAAAGGGGAAAGUAUUAUGUUACGCCGUUCGGAUCUGCACUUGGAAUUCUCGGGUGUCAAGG	-0.591

Study 3 — technique: universal PBM; form: double-stranded DNA, one strand shown; matrix: in vitro; tested at: 600 nM; direction: higher = stronger binding
Target: Sal-like protein 4, full length isoform A (SALL4, Homo sapiens, UniProt Q9UJQ4, residues 1-1053)
Chain of UniProt Q9UJQ4 (whole entry, looked up): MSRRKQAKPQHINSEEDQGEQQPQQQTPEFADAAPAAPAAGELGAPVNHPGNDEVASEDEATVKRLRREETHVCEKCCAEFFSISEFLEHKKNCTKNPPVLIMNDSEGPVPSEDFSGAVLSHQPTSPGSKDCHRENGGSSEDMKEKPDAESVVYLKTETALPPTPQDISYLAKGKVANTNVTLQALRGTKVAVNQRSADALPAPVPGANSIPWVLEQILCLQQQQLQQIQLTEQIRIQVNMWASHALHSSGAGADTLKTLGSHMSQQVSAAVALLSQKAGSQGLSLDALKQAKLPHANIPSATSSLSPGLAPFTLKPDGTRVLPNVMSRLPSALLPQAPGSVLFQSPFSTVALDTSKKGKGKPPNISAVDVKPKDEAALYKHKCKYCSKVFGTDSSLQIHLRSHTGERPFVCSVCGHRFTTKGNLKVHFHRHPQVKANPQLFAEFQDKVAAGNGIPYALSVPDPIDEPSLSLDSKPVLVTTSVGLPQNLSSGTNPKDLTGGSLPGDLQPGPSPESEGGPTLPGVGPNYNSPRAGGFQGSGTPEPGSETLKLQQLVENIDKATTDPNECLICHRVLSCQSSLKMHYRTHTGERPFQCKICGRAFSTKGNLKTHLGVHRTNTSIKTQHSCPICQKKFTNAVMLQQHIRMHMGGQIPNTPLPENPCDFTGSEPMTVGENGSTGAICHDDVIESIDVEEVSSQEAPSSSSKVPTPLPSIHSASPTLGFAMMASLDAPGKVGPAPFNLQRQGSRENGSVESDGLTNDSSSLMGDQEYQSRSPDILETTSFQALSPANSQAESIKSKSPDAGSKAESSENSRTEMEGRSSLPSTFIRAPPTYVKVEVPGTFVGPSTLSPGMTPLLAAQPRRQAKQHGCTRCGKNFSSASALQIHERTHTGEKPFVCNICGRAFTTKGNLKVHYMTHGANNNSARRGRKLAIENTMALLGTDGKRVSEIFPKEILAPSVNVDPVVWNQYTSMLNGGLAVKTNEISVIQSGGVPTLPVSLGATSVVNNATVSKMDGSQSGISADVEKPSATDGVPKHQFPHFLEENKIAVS
Notes: 8-mer, flanks averaged, mean of replicates
Strand	E-score
CTGAGATA	0.165
ATGCTTCC	-0.0393
GACAGTGA	-0.0636
CCGTTAAC	-0.12
CCCATACC	-0.143
CACTGACC	-0.175
CTCTGATC	-0.139
CAGGACTG	-0.189
CCGGGACG	-0.378
AGAGAAGA	0.0533
GGACCCTA	-0.311
GTTCTGGA	0.00993
ACAGCTGC	0.00198
CGCGGCCG	-0.429
ACCGAAAA	0.158
CGGGGTAC	-0.292
CTAGAAAA	0.174

Study 4 — technique: protein binding microarray; form: double-stranded DNA, one strand shown; matrix: in vitro; tested at: not given; relative to: not given; direction: higher = stronger binding
Target: Histone acetyltransferase KAT6A, winged helix 1, GST fusion (KAT6A, Homo sapiens, UniProt Q92794, residues 1-85)
Notes: 8-mer, flanks averaged, mean of 2 arrays, mostly near background
Residues (chain): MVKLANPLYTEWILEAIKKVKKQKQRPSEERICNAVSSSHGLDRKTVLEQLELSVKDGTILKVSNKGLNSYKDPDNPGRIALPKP
Strand	E-score
CAGACGCA	-0.0436
GCAACTCA	-0.125
CAGGTTTC	-0.182
AGCCCGGA	0.0879
GAACACAA	-0.283
GGCGGGTA	0.368
GGCTCTTA	-0.12
CCCTCGCC	0.00854
ACACCCTG	-0.318
ATGGTTGA	0.0377
TGAGGACA	-0.348
TAGGGGGA	-0.0902
GCGATTAC	0.111
GGGTAACC	0.00997
CGTGCCCA	0.135
CCACCGCG	0.27
CAATACCA	-0.107
CAGTTGTA	-0.0174
CCGTTTGA	0.194
TCGCGACA	0.124

Study 5 — target: CCNE1, cyclin fold, Cln2 fusion (human); technique: yeast growth competition, sequencing; matrix: yeast; notes: weak parent motif; relative to: not given; direction: higher = stronger binding
Starting sequence: KIF20B docking peptide (human); KRAKRKLYTSEIS
Variant	normalised enrichment score
T9A	0.248
R5A	-0.283
I12A	0.346
S13A	0.346
R2A	0.65
S10A	-0.206

For quick reference, copied from above (study 3):
Strand	E-score
CCGGGACG	-0.378
ATGCTTCC	-0.0393
CGGGGTAC	-0.292
CTGAGATA	0.165
ACCGAAAA	0.158
CGCGGCCG	-0.429
